Measurements of several laboratories.
Every numbered part comes from another study and shows a few of its results, in no order.

Study 1 — technique: protein-binding microarray; molecule type: double-stranded DNA, one strand shown; matrix: in vitro; concentration: not given; direction: higher = stronger binding
Target: Transcription factor Sp1 (SP1, Homo sapiens, UniProt P08047, residues 1-785, full length assumed)
UniProt P08047, sequence (whole entry, looked up): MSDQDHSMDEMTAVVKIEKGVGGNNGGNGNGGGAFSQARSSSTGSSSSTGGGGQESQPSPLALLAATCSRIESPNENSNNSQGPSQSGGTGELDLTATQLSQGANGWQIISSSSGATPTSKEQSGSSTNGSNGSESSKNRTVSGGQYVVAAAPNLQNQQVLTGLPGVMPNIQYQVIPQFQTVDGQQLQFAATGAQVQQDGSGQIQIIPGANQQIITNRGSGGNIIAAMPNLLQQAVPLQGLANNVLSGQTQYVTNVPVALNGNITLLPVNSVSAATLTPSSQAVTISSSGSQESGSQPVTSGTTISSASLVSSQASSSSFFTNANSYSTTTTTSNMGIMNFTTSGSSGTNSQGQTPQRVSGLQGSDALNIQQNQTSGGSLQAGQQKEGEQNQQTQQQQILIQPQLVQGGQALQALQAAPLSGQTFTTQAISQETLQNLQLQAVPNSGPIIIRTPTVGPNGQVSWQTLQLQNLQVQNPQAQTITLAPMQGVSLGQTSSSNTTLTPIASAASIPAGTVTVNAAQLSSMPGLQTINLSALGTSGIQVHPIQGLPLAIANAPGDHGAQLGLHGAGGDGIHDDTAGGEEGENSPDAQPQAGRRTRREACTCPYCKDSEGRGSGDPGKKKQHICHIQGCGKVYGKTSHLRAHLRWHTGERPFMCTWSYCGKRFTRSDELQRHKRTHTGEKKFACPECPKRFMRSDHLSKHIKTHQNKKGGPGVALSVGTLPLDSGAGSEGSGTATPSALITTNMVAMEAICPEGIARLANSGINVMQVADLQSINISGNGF
Notes: k-mer, scored over probes, only values ≥0.25
Strand | E-score
ATATACAT | 0.259
ACATACAT | 0.287
CCCGCCGC | 0.265
GTATATAA | 0.274
AATAAGTA | 0.28
CCCCACAC | 0.345
ACACATAA | 0.258
ATATCACC | 0.256
CCCCCATA | 0.256
AAAGGGGT | 0.258
AGGGGGGA | 0.287
ATGTGTTA | 0.276
ACGTTATG | 0.306
CACCCTAC | 0.274
TATCGGGA | 0.273
AGGTGGGC | 0.306
AACAGGGG | 0.302

Study 2 — technique: RNA Bind-n-Seq; molecule type: RNA; matrix: in vitro; concentration: 200 nM; notes: whole 134-nt RNA, ends assumed; together with: 150 mM LiCl; relative to: input library; direction: higher = stronger binding; library: 7-deaza-guanosine replaces G
Target: Fragile X messenger ribonucleoprotein 1, C-terminal low-complexity region (Fmr1, Mus musculus, UniProt P35922)
Strand | log2 enrichment
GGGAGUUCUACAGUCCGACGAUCUCAAGUCCUGUGCUACACAUCGUAUGUACCGAAUCGGUUUGGUUUGGGUUUGGGGAAAGUAUUAUGUUACGCCGUUCGGAUCUGCACUUCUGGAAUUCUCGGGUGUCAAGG | -1.7
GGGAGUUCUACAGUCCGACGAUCUGGCCCUGGUGGCAUGCGGGUAGGAAGAGGUGGCCUCAUGGAUCGUGGUGGUCCCGGUGGAAUGUUCAGAGGUGGCCGUGGUGGAGACAGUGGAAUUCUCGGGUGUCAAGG | 0.296
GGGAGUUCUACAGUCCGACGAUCUGUAGAAAAGGCACUGGACUAACACUUGGCUGUAUCUUGUAACAGGCAUGUUAUGUUACCCAGAGAACUUUCCAAACAAGUACCUAAAACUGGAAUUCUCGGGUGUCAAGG | 0.689
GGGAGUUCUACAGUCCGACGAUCUCCUGUGCUACACAUCGUAUGUACCGAAUCGGGGUUUGGGGUUUUUGGGGUUUUUGGGGAAAGUAUUAUGUUACGCCGUUCGGAUCUGCAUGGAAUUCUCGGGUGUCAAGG | -0.715
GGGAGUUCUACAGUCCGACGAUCGCAGGAAGUAAAAACAAAUGGAAAUGCUUCGGAUAGUGGCAGGGGUGGGGGUUGCUAAGGAAAGGGUGGGAUGGGAGUAAAUAAAGAGUUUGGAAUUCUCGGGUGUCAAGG | 1.27
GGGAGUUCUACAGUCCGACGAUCACCAUGCAGGUGGGCAUCUUUGGGAAGUGGGGCAAGGGGGGGAUAGGGAGGGGGGCAACACUUUGGGAACAGGUGGUCCCAGGUCGUUUCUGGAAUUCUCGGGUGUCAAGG | 1.22
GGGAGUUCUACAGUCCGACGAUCAAGUCCUGUGCUACACAUCGUAUGUACCGAAUCGGGAAAAGGAAAAGGAAAAGGGGAAAGUAUUAUGUUACGCCGUUCGGAUCUGCACUUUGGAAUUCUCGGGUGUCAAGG | -0.356
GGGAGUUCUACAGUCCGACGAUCCUGUGCUACACAUCGUAUGUACCGAAUCGGGGUUUUUUUGGGGUUUUUUUGGGUUUUUUUGGAAAGUAUUAUGUUACGCCGUUCGGAUCUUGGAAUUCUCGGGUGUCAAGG | 1.38

Study 3 — technique: protein binding microarray; molecule type: double-stranded DNA, one strand shown; matrix: in vitro; concentration: not given; relative to: not given; direction: higher = stronger binding
Target: Histone acetyltransferase KAT6A, winged helix 2, GST fusion (KAT6A, Homo sapiens, UniProt Q92794, residues 85-181)
Notes: 8-mer, flanks averaged, mean of 2 arrays, mostly near background
Construct (chain): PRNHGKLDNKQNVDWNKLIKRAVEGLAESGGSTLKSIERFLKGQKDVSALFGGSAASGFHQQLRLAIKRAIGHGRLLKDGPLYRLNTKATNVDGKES
Strand | E-score
CAGTTACA | -0.0825
GTTCATCA | 0.0183
CGCTGCGA | 0.136
AACGATGT | -0.091
CCAAGTGC | 0.0486
GACAAAAA | 0.15
AACTAGTA | -0.229
CCGGCTTC | 0.255
AACTATTG | 0.0488
CCGCTTCG | -0.0141
GCTCAGCA | 0.162
ATTAAGAG | -0.0696
CTTGAGAA | -0.103
ATAACTGG | -0.138
ACTCACAG | 0.0471
CATTGTCA | -0.00581
GCCGCGGC | 0.346
AGCATGTC | -0.0305
CCCCCACA | -0.101
CCCCCCTC | 0.076
ACTACTAG | -0.0719

Study 4 — technique: protein-binding microarray; molecule type: double-stranded DNA, one strand shown; matrix: in vitro; concentration: 250 nM; notes: 60-bp whole probe; together with: salmon DNA 0.4 mg/ml; relative to: random background probes; direction: higher = stronger binding; constant ends, left off below: GCCTAGCAC … GTCTTGATTCGCTTGACGCTGCTG
Target: Interferon regulatory factor 5, full length, phosphomimetic (IRF5, Homo sapiens, UniProt Q13568-2, residues 1-514, K96S/S451D/S453D/S456D/S462D)
Strand | log fluorescence [z-score]
GACGGTCTGCTACTGCTGACGTGCTAG | -0.465
AACGGACTGGGGTATCGGGACGTGCTA | 0.104
TTAGATATCGCGTTTCGATTAGTGCTA | 5.45
GACGATATGGGGTTTCGAGACGTGCTA | 1.45
TTAGGTTCCCATTTCCTTTAGTGCTAG | 0.459
TCACTTTTCTTTACTGAACTGTGCTAG | 1.53
GGCCTTGGAGGGGGTGGGTGGTGCTAG | 1.71
TCAGATATCAGTTTCGATTAGTGCTAG | 9.97
TTTGGTATCCTACTGCTTTAGTGCTAG | 0.344
CGCAGGGCAGGCTTCGGCCGGTGCTAG | -1.08
TTAGGACTGGACTTTCGGTTGGTGCTA | 9.06
CTCTATTGCTTTCTCTTTCAGTGCTAG | 4.82
CAGAGCCTCAGTCCTCACACAGTGCTA | -0.464
TTAGGACTGGGTCTCGGTTTGTGCTAG | -0.0343
ATAGATATCGGGTATCGATTAGTGCTA | 6.04
TTAGATATCAGACGGGATTAGTGCTAG | 0.295
GACGGTATCCGACTGCTGACGTGCTAG | -0.366
TTAGGACTGGGTCTCGGCTAGTGCTAG | -0.55
TCATGCTTCTGTATTCAACTGTGCTAG | 0.286

Study 5 — technique: universal PBM; molecule type: double-stranded DNA, one strand shown; matrix: in vitro; concentration: not given; direction: higher = stronger binding
Target: Sal-like protein 4, full length isoform B (SALL4, Homo sapiens, UniProt Q9UJQ4-2, residues 1-616)
Notes: 8-mer, flanks averaged, mean of replicates
Strand | E-score
ACGTACGC | -0.0542
CATCATCA | 0.169
CAAAGCGC | -0.104
GGTTCAAC | -0.283
TACGGTCA | -0.0786
GTGTTAGA | 0.102
ACAGCCGT | -0.186
TCACTACA | 0.13
CTCGAATC | -0.147
AACTCTTC | -0.066
GAGTGACA | -0.064
CATCTAGC | -0.0223
CTCTCTGA | -0.236
AATGAAGT | 0.229
AGCAAATG | 0.00829
ACGTAGAC | -0.0765
CTCTACTA | 0.0768
TCACGAAA | 0.182

Some of these lines once more (study 1):
Strand | E-score
ATATACAT | 0.259
ACATACAT | 0.287
CCCGCCGC | 0.265
GTATATAA | 0.274
AATAAGTA | 0.28
CCCCACAC | 0.345
ACACATAA | 0.258
